Experimental data of several laboratories.
Numbered parts are unrelated; each lists some results of a single study.

Study 1 — method: RNA Bind-n-Seq; form: RNA; sample: in vitro; concentration: 365 nM; relative to: no-protein control; direction: higher = stronger binding
Target: RNA binding protein fox-1 homolog 2, RRM domain, GST-SBP tag (RBFOX2, Homo sapiens, UniProt O43251-10, residues 100-194)
Setting: natural RNA segment, single round, ends assumed
Shared flanks, not repeated: GGGAGUUCUACAGUCCGACGAUC … UGGAAUUCUCGGGUGCCAA
Oligonucleotide	RBNS enrichment (R)
UGUGGAGGAGCUAACUCGGAUCCAUUAGCCAAGGGCAGGGGGCCCCUUUGCUGACCCUCCCCAAAGGCUUUGCCCUGCUGCCCUCCCCCUCCUCUCCACCAUCGUCUUCU	0.62
AAGCCAGCACGCGGUUCUGUGCUAUAGGAGUCUCCCGUUUCCCGUGGACAGGUUCAGCGUUCCUUCUUUCGCACAACUUUUUUCUAAGUGUUCCAGUGACCAAGCCAGUC	1.65
UCAGGUAGUGCACAUAUUGGCAAUAGAGGUCCUGAAUUGUUUUUCUAAGACUGAUCUGAGAGCCAUUGGGCCAUCAAGCCUUUAUAUAUCUGCUUCUAAAAUUGCCCCAC	0.774
UACUACAUGAUUUGUUCCCAGAGGUUUGAAACAUUCAGUGAAACUUUUUAAAACUUUGAUUGCAUGAUGUAUUUUUUUUUUAGAAAGUUAUUGUUUGAGAAUAAUGUCUU	24.1
CCAGCUCUCAUUGUGUGUGCUCAGGGCUAAGUCUAAACAAGGGUUUGCUGGCCCCCAAGCUGUUGUUUGUUAGGUGAGGUUAAGUAGGGCUCUUCUGGUCCUGUGCAUAC	3.35
AAAAUGUGUUUGAGCUUUAGACUAUAACAUUUGUUGUAAUAAUUGCUAGGUUGAAGUUCACCAUGUUUAAAAAAAAUGGGGGGCAUGGAUUUACAUUACAAAGGCGUCCA	0.593
CCAGCAUACUCCAAACUGUUUCUGAUGUGUUCCAUGAGAAAAGGAUUGUUUGCUCAAAAAGCUUGGAAAAUACUACACACUCCCUUUCUCCUUCUGGAGAUCAACCCACA	0.375
UCUGGCUUCCUGGUAGAGGGCGGCAUGCCGAAGGGUCUGCUGGGUGUGGAUUGGAUGCUGGGGUGUGGGGGUUGGAAGCUGUCUGUGGCCCACUUGGGCACCCACGCUUC	0.93

Study 2 — method: aptamer microarray, sandwich; form: DNA with 2'F-ANA; sample: in vitro; concentration: 200 nM; added: Cy3 exosite-II aptamer, 400 nM; direction: higher = stronger binding; oligonucleotide: GGTTGGTGTGGTTGG
Target: Prothrombin, mature alpha-thrombin (F2, Homo sapiens, UniProt P00734)
Setting: whole 15-mer aptamer, many near background
Modification	mean fluorescence intensity
2'F-ANA at 2 8 10 11 12 13 15	127 a.u.
2'F-ANA at 2 3 6 7 8 9 10 11 12	355 a.u.
2'F-ANA at 1 4 5 6 7 9 10 12 13 14 15	48.8 a.u.
2'F-ANA at 4 8 9 12 13 14 15	94.3 a.u.
2'F-ANA at 2 3 6 7 8 11 12 13 15	761 a.u.
2'F-ANA at 1 4 6 9 10 11 15	49 a.u.
2'F-ANA at 1 2 7 9 10 12 14	45.7 a.u.
2'F-ANA at 1 6 8 10 11 12 13 14	92.2 a.u.
2'F-ANA at 4 6 7 8 10 14 15	59.3 a.u.
2'F-ANA at 2 5 8 9 11 12 13	133 a.u.
2'F-ANA at 1 4 8 9 10	53.6 a.u.
2'F-ANA at 1 2 4 8 11 14	57.4 a.u.
2'F-ANA at 1 2 3 6 7 10 13 14 15	53.8 a.u.
2'F-ANA at 2 3 5 6 7 8 10 13 15	55.9 a.u.
2'F-ANA at 2 4 6 7 9 12 13	315 a.u.
2'F-ANA at 1 3 5 6 7 8 10 11 12 14 15	81.9 a.u.
2'F-ANA at 3 6 13 14 15	527 a.u.
2'F-ANA at 2 3 4 6 7 8 10 11 13 14 15	137 a.u.

Study 3 — method: protein-binding microarray; form: double-stranded DNA, one strand shown; sample: in vitro; concentration: 2540 nM top; setting: 60-bp whole probe; added: salmon DNA 0.4 mg/ml; relative to: random background probes; direction: higher = stronger binding; shared flanks, not repeated: GCCTAGCAC … GTCTTGATTCGCTTGACGCTGCTG
Target: Interferon regulatory factor 3, full length, phosphomimetic (IRF3, Homo sapiens, UniProt Q14653, residues 1-427, S386D/S396D/S398D/S402D/T404D/S405D)
Residues (chain): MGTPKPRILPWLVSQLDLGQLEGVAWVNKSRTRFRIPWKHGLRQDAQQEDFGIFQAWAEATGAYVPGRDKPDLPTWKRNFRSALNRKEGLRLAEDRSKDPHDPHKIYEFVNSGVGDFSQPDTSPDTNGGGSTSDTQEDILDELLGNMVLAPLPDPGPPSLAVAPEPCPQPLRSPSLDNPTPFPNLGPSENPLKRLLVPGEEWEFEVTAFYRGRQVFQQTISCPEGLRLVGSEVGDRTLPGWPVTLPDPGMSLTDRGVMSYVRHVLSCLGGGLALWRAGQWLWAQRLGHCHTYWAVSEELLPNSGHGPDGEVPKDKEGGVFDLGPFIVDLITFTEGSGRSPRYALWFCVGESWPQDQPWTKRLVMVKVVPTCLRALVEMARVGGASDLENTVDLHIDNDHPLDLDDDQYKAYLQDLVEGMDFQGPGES
Oligonucleotide	fitted relative affinity [z-score]
TAAGATTTCGGGTATCGATTAGTGCTA	1.52
CACGGTATCGGGTATCGGGACGTGCTA	1.44
TTAGGTATCGACGCTGGGTTAGTGCTA	-0.422
TTGGGTATCGGGTTTCGGTTAGTGCTA	3.33
CACAGTTTGTAAATCTTTTTGTGCTAG	0.554
GACGTTTTCAGACTGGAGACGTGCTAG	1.75
GACGGTTTCGGACAGGGGACGTGCTAG	3.07
TTCTTAATGCTTCTGGGCCAGTGCTAG	0.227
TTAGGTTTCCACTATCGGTTAGTGCTA	3.19
TCCATTTTCAGAATTTACTTGTGCTAG	2.92
CAGCCGCACAGCATGAGTTCGTGCTAG	-0.827
TTAGGTCTCGGTATGGGTTAGTGCTAG	0.242
TCATTAATGAAAATTCTAACTGTGCTA	-0.0544

Study 4 — method: universal PBM; form: double-stranded DNA, one strand shown; sample: in vitro; concentration: not given; direction: higher = stronger binding
Target: Sal-like protein 4, full length isoform B (SALL4, Homo sapiens, UniProt Q9UJQ4-2, residues 1-616)
Setting: 8-mer, flanks averaged, mean of replicates
Oligonucleotide	E-score
CAATTTGG	0.0768
AGATGAGA	-0.0509
TAAATAGA	0.163
ATCGACGA	0.00781
GTAGATAA	0.239
AGCCAACG	-0.0399
CGAGATCA	-0.0607
CAACGACG	-0.159
AATTGTAG	0.232
CGTGGGAC	-0.24
AAATCTGA	0.084
GACACCCC	-0.303
CGTTTATC	0.221
CGCACGAC	-0.207
CATTGCAG	-0.0729
GAATTCGA	-0.0319
AACCTGAA	-0.0578
CGTGACGC	-0.0161
ACTTGTTC	0.0966
GTTTAAGA	-0.0556

Some of these lines once more (study 1):
Oligonucleotide	RBNS enrichment (R)
AAGCCAGCACGCGGUUCUGUGCUAUAGGAGUCUCCCGUUUCCCGUGGACAGGUUCAGCGUUCCUUCUUUCGCACAACUUUUUUCUAAGUGUUCCAGUGACCAAGCCAGUC	1.65
UCAGGUAGUGCACAUAUUGGCAAUAGAGGUCCUGAAUUGUUUUUCUAAGACUGAUCUGAGAGCCAUUGGGCCAUCAAGCCUUUAUAUAUCUGCUUCUAAAAUUGCCCCAC	0.774
UACUACAUGAUUUGUUCCCAGAGGUUUGAAACAUUCAGUGAAACUUUUUAAAACUUUGAUUGCAUGAUGUAUUUUUUUUUUAGAAAGUUAUUGUUUGAGAAUAAUGUCUU	24.1
CCAGCUCUCAUUGUGUGUGCUCAGGGCUAAGUCUAAACAAGGGUUUGCUGGCCCCCAAGCUGUUGUUUGUUAGGUGAGGUUAAGUAGGGCUCUUCUGGUCCUGUGCAUAC	3.35
AAAAUGUGUUUGAGCUUUAGACUAUAACAUUUGUUGUAAUAAUUGCUAGGUUGAAGUUCACCAUGUUUAAAAAAAAUGGGGGGCAUGGAUUUACAUUACAAAGGCGUCCA	0.593
